Measured values gathered from unrelated publications.
Numbered parts are unrelated; each lists some results of a single study.

Study 1
Target: RING finger protein unkempt homolog, zinc fingers 1-6, GST-SBP tag (UNK, Homo sapiens, UniProt Q9C0B0, residues 30-357)
Chain of UniProt Q9C0B0 (30-357, looked up): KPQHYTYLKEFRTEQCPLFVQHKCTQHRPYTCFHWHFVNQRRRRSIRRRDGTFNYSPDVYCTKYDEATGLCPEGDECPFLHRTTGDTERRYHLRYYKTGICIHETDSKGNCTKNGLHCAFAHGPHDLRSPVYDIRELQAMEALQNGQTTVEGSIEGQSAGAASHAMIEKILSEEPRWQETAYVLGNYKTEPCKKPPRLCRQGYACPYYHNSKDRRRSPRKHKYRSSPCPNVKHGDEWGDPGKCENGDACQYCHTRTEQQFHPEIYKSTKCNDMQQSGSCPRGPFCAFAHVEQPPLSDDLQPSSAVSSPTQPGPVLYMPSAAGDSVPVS
Method: RNA Bind-n-Seq
Form: RNA
Sample: in vitro
Concentration: not given
Setting: RNA with constant flanks, human and mouse sites, ends assumed
Baseline: input RNA pool
Reading: higher = stronger binding
Shared flanks, not repeated: GGGAGUUCUACAGUCCGACGAUC … CAACAGAGGAUUGAGCAUCA
| Strand | bound/input enrichment |
| --- | --- |
| AGUGAUUUACUGGAUUUCAGUGCGAUGUUUUCACCUCCUGUGAGCAGUGGGAAAAAUGGACCAACUUCUUUGGCAAGUGGACAUUUUACUGGCUCAAAUGUAGAAGACAGAAGUAGCUCA | 0.227 ratio |
| GAGAGAGAUACGGAGAGACAGACAGACAGAGAGAGAGACAGAGAGAGAGAUGCUUUCCCAAGAGGAAAUGCAUAUGUACCUUGAUUUAAGCAAAACUGAUAACAGAAAAUUGAACUUAAU | 0.277 ratio |
| CCUCGGGAACGGGACUACUUAAAAACAGUCUUACACAGAAUUUAUGGCAAGUUUCUUGGUCUUAGAGCAUUUAUCCGAAAACAGAUUAACAAUAUUUUUCUAAGGUUUGUUUAUGAAACA | 0.66 ratio |
| GCUGUCAGGCCUCAUCCACUGUGAAUCCCCCAGGUUCUUAAAACUUUAAAAUUUUUGAAUUUUAGAUAAUUAUGGAAUUAAUGCAAUGUCACACACUACUGUUAACUCUGUGGCCAAUUA | 3.72 ratio |
| CCGCCGCCGCCGCCGCCUCUCCUUAGUCGCCGCCAUGACGACCGCGUCCACCUCGCAGUCUUACUACUUUGACCGCGAUGAUGUGGCUUUGAAGAACUUUGCCAAAUACUUUCUUCACCA | 0.229 ratio |
| GCUUUUGAUGAUGCAAUUGCAGAACUGGAUACGCUGAGUGAAGAAAGCUAUAAGGACUCUACACUUAUCAUGCAGUUGUUACGUGAUAAUCUGACACUAUGGACUUCAGACAUGCAGGGU | 0.215 ratio |
| CUGAAUCUUCUAAAUCACCCAUGGCUGGUCCAGGAUACAGAGGCUGAAACUCUGACUGGUUUUUUGAAUGGCAUUGAGUGGAUUCUUGAAGAAGUGGAAUCUAAGCGUGCAAGAUGAUUC | 0.188 ratio |
| AACAAUCCAUAUGCGACCACAGAAGGAAAUUCAACAGAACUUAGCAUAAAUGCUGAAGUGUAUUCAUUGCCUUCAAGAAAGCUGGUGGCUCUACAGUUAAGAUCCAUUUUUAUUAAGUAU | 0.266 ratio |
| CAAAGUAUGGGAUUUGCGCAAGAAUUACACUGCUUAUCGACAAGAACCCAUAGCAUCCAAGUCUUUCCUGUACCCAGGUACCAGCACUCGAAAGCUAGGAUACUCGAGUUUGGUUUUAGA | 0.398 ratio |
| UCUCAGUUAUUAAAGCUAAUUGGUUUUUUUGUUUGGAGAGUGACAUUUUAAUUGAUUUAAUUAUUGUCAAUAUUAAGUUGAGAGUUUUGUUUGGGUAUUGACAUUCUUCAUUUCAUGUUG | 0.598 ratio |
| AGAGCAUCAAGGGAACACCCAUCUGUCCAGGAGAAGAAGAAGUCCACCAUCUGGCAGUUCUUUAGUCGCCUCUUCAGCUCCUCAUCUAGCCCCCCUCCGGCCAAACGAUCCUACCCAUCU | 0.778 ratio |

Study 2
Target: Interferon regulatory factor 5, full length, phosphomimetic (IRF5, Homo sapiens, UniProt Q13568-2, residues 1-514, S451D/S453D/S456D/S462D)
Method: protein-binding microarray
Form: double-stranded DNA, one strand shown
Sample: in vitro
Concentration: 940 nM top
Setting: 60-bp whole probe
Together with: salmon DNA 0.4 mg/ml
Baseline: random background probes
Reading: higher = stronger binding
Shared flanks, not repeated: GCCTAGCAC … GTCTTGATTCGCTTGACGCTGCTG
| Strand | fitted relative affinity [z-score] |
| --- | --- |
| GGTCTTCTGGGCTGTTTGGTTGTGCTA | 0.16 |
| TTAGGTTTTGGTCTCGGTTAGTGCTAG | 6.71 |
| CTAGGTTTCCTTTCCCTTTAGTGCTAG | 1.82 |
| GACGGACTGGGACTTGGGACGTGCTAG | -0.895 |
| TCAGATATGCCAAATCTGACTGTGCTA | -0.296 |
| TTAGGTATCGACTTTTGGTTAGTGCTA | 4.43 |
| GACGGTCTCGATATCGGGACGTGCTAG | 4.06 |
| TTAGATATCGGGACTGAATTAGTGCTA | -0.0469 |
| TCAGCTTTCCTTCATGCACTGTGCTAG | 0.636 |
| GACGGTTTCCTGTTCCTGACGTGCTAG | 1.34 |
| TAAAGCATTACTTTAGGTTCGTGCTAG | -0.741 |
| GACGGTATCGGTTCCGGGACGTGCTAG | 9.17 |
| GACGGTATCGGTATCGGAACGTGCTAG | 9.42 |
| GACGCTTTCGGTTTCGGGACGTGCTAG | 8.17 |
| GGTTTTCTAATGTTTTTTAAAGTGCTA | 1.24 |
| GAAGAACTGAGTATCGAGACGTGCTAG | 1.21 |
| TCATGTCTGTGTCACAGAGAGTGCTAG | 0.117 |
| TCAGTCACCCATCTCAGACTGTGCTAG | 0.642 |
| TACTCTACAGGGTTTCACTTTGTGCTA | 2.1 |
| TGCGGTTCAGATATAGGATAGTGCTAG | -0.337 |

Study 3
Target: Fragile X messenger ribonucleoprotein 1, C-terminal low-complexity region (Fmr1, Mus musculus, UniProt P35922)
Method: RNA Bind-n-Seq
Form: RNA
Sample: in vitro
Concentration: 200 nM
Setting: whole 134-nt RNA, ends assumed
Together with: 150 mM LiCl
Baseline: input library
Reading: higher = stronger binding
All molecules: 7-deaza-guanosine replaces G
Shared flanks, not repeated: GGGAGUUCUACAGUCCGACGAUC … UGGAAUUCUCGGGUGUCAAGG
| Strand | log2 enrichment |
| --- | --- |
| AUUCUAUAAAUGGCAAGUAAGCCUGAAGUGAGGAUACUGCAAUUUUCGGAGAAAAGAACAGCAGCUCUUUAAGUGUUUGCAUUUUCUAUU | -2.58 |
| CUCAAGUCCUGUGCUACACAUCGUAUGUACCGAAUCGGGGUGGGUGGGGUGGGGAAAGUAUUAUGUUACGCCGUUCGGAUCUGCACUUCC | -0.325 |
| GCAGGAAGUAAAAACAAAUGGAAAUGCUUCGGAUAGUGGCAGGGGUGGGGGUUGCUAAGGAAGGGGUGGGAUGGGAGUGGGUAAAGAGUU | 1.1 |
| GCAGGAAGUAAAAACAAAUGGAAAUGCUUCGGAUAGUGGCAGGGGUGGGGGUCGCUAAGGAAAGGGUGGGAUGGGAGUGGGUAAAGAGUU | 1.17 |
| CCUCAAGUCCUGUGCUACACAUCGUAUGUACCGAAUCGGGCCGGCCGGGCCGGAAAGUAUUAUGUUACGCCGUUCGGAUCUGCACUUCCA | 0.88 |
| UGGGAGGUGGAUUUUGUUUAUUUUUUUAGCUCAUUUCCAGGGGUGGGAAUUUUUUUUUAAUAUGUGUCAUGAAUAAAGUUGUUUUUUAAA | 0.602 |
| UAACUUUAGAGGAGGAUCUGAUGGAUAUGGCAGUGGACGUGGAUUUGGGGAUGGCUAUAAUGGGUAUGGAGGAGGACCUGGAGGUGGAAA | 0.796 |

Study 4
Target: RNA binding protein fox-1 homolog 2, RRM domain, GST-SBP tag (RBFOX2, Homo sapiens, UniProt O43251-10, residues 100-194)
Method: RNA Bind-n-Seq
Form: RNA
Sample: in vitro
Concentration: 365 nM
Setting: natural RNA segment, single round, ends assumed
Baseline: no-protein control
Reading: higher = stronger binding
Shared flanks, not repeated: GGGAGUUCUACAGUCCGACGAUC … UGGAAUUCUCGGGUGCCAA
Target sequence (chain): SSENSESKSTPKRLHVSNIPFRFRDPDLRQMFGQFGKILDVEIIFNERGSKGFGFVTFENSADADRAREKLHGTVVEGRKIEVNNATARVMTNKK
| Strand | RBNS enrichment (R) |
| --- | --- |
| UUGUCCUCUGCUGUCUCCUCUGGUCCUGAGAUGAGCUGUGAGCCUAGGUGGCCAAGGCUUCCUGCAUUGCUUCCCUGUGAGUCCAAGGCCUUCCCCCACCACUGGGCAGA | 0.278 |
| UCAGUGUCUUUUCAGCACUUUGAGCAUUUACUUGGCUCAUUUAGUCUUCCUUUUGUAGCGCAUGGUUGGGAGGAAAAAGUGCAUGCAUCAUUCCUUCACUCUUCUCUUUU | 17.5 |
| ACAAAGGUUGAUCUCUAAAAAAACAAAAAACCCCAUUAAAACAAUAAAGAAUUUAUUUUGCCUAAAAUGUUAAAUUUAUUUUUUGAGCUGUAACAUGAAGAAUUUGGAUU | 0.86 |
| UGGUUAUGUUACAAAUUCAUAUUCUGUUACUACAGUAAACGUUAAGAGUUUUAAACAGUUAAGAUUGUACAAUUUUUCUUCUUUUCUAUAUUACAAGGGCCCCAGUGUUA | 0.617 |
| AUAAAAGGAUGAUUUCUGUUUUCAUCUACUUAUGUGGAGUAUGACUCACACUUCUAUAUUUGCACUGGGGAAGACAUAUUCCUAAAAAUGGAUACAUAACAAAGAAUUCU | 0.367 |
| GCUGGAACUUUGUGGUCCUUGCCGAGUUUUGUAGGGGUCACUGUCACAUGCUUGUGCCCUGGAAGCCCCAAGGCUCUUCCUCCAGCUGGCUCCCUUGUCUCCAGGGCUUU | 0.438 |
| UGUGGUAUUGGCUCUGGCCCAGCCUUCUCCCCUGUUACCCAUAAUUCUUGCCUCUUUCCAUAAUCCGUGGUUUCAGUUUGACUUUGUAUAUAAAGUUGGGGUUUUUUUUU | 0.461 |
| UCAGUCCCACUUGGUUUCUGAGUGCCUCUUUUCUCUUCUGUGUCUUCUCUUCCCUUGUCCUUCCUCCUUGGCUCUUCUGUCCUUUCCUUCCCUGUGCAGACAGGACUAUG | 0.445 |
| UCUCCUGAAGGACCUGGGUCCCUUCCCCCGGAGCCUGUGCCUUGGGGCAGGGGAACCCCAAAGUAAGGUGCCAUGGUGUUUGGCACUCAAGAUUUAGCUCACCCUUGAAC | 0.22 |
| AAUCAGAAACUCAUUUACAUAAUGUAAAAGUGAAUCUAAAUAAAUCAUGAUUUAAACAGUCUAAAAAUAGAUCCUGUCUCCUUUUUAGUCAAUGAUAAUAACCUAAGGGA | 0.292 |
| CGGCUGCAAGGAGUCUGCAGUGGUAACAGCUUCUCUCUAGCCUGGCUGGCUUUGGUAGGCAAAAGUGAACUUGGAAGUCACAGUGGGAUCAGAGGGGUGUAGGUUGCGAU | 0.634 |
| CAAGCGCAUUACCCACUUGUGGCCAAUCAGUGGCCAGGCCAACCUUGGCUAAAUGGAGCAGCGAAAUCAACGAGAAACUGGACUUUUUAAACCCUCUUCAGAGCAAGCGU | 0.376 |
